Results of several laboratories.
≈ marks a conversion by molar mass, not a printed value.
Organism: Staphylococcus aureus

For `CCN1CCN(C(=O)N[C@@H](C(=O)N[C@@H]2C(=O)N3[C@@H]2SC(C)(C)[C@@H]3C(=O)O)c2ccccc2)C(=O)C1=O`, the FIC index was 0.75 (checkerboard broth microdilution; ATCC 27853; with: ranalexin).
`CC[C@H]1OC(=O)[C@H](C)[C@@H](O[C@H]2C[C@@](C)(OC)[C@@H](O)[C@H](C)O2)[C@H](C)[C@@H](O[C@@H]2O[C@H](C)C[C@H](N(C)C)[C@H]2O)[C@](C)(O)C[C@@H](C)C(=O)[C@H](C)[C@@H](O)[C@]1(C)O` gave a susceptible isolates of 38.5% (hospitalized pneumonia patients, clinical isolates; Fine score 70 or more).
`CCc1cc(=O)c2c(OCC3CO3)c3ccoc3c(OC)c2o1` (stereo not shown) has an MIC of greater than 256 mg/L (microbial growth, broth dilution; ATCC29; 19 h).
The inhibition zone of `O=C(/C=C/C=C/c1ccccc1)c1ccccc1O` is reported as 7 mm (microbial growth, well diffusion; MTCC96; 1000 µg/mL, 18 h).
The MIC of `Oc1ccc(Cl)cc1C=Nc1ncn[nH]1` is reported as 64 mg/L (≈ 287 µM) (microbial growth, broth dilution; ATCC29213).
Under “inhibition zone diameter”, `CCOC(=O)N1CCN(Cn2nc(C34CC5CC(CC(C5)C3)C4)n(-c3ccccc3)c2=S)CC1` is recorded as 17 mm (IFO 3060; 200 µg/disc, 24 h, 37 °C).
For `COc1cc(C=Cc2cc(-c3ccccc3)nc(O)n2)ccc1O`, the inhibition zone was 11.3 mm (microbial growth, disc diffusion; ATCC29213; 500 µg/mL).
`CC[C@H]1OC(=O)[C@H](C)[C@@H](O[C@H]2C[C@@](C)(OC)[C@@H](O)[C@H](C)O2)[C@H](C)[C@@H](O[C@@H]2O[C@H](C)C[C@H](N(C)C)[C@H]2O)[C@](C)(OC)C[C@@H](C)C(=O)[C@H](C)[C@@H](O)[C@]1(C)O` gave an FIC index of 0.75 (checkerboard broth microdilution; clinical isolate 14-99; with: magainin II).
With `O=C(O)CNC(=O)Cn1ccc2ccc(Br)cc21` the survival was 50% (Newman, mouse, sepsis model; subcutaneous, 60 mg/kg, 19 days, with: gentamicin 2 mg/kg).
For `CCc1cc(=O)c2c(OCC(O)CN3CCCCC3)c3ccoc3c(OC)c2o1` (stereo not shown), the MIC was greater than 256 mg/L (microbial growth, broth dilution; ATCC6538; 19 h).
Under “inhibition zone diameter”, `CCC(=O)O[C@H]1[C@H](C)O[C@@H](O[C@H]2[C@H](N(C)C)[C@@H](O)[C@H](O[C@H]3[C@@H](CC=O)C[C@@H](C)[C@@H](O)/C=C/C=C/C[C@@H](C)OC(=O)C[C@@H](O)[C@@H]3OC)O[C@@H]2C)C[C@@]1(C)O` is recorded as 10 mm (134/93 methicillin-resistant, DMSO-methanol; 50 µL of 2.0 mM, 24 h, 37 °C, 9 mm well).
With `CC1(C)S[C@@H]2[C@H](NC(=O)[C@H](N)c3ccc(O)cc3)C(=O)N2[C@H]1C(=O)O` the susceptible isolates was 7.7% (hospitalized pneumonia patients, clinical isolates; Fine score 70 or more).
`CCc1cc(=O)c2c(OCC(O)CN3CCOCC3)c3ccoc3c(OC)c2o1` (stereo not shown) gave an MIC of greater than 256 mg/L (microbial growth, broth dilution; ATCC6538; 19 h).
`CCSC1CC(=O)C(C)(CCC(=O)Nc2c(O)ccc(C(=O)O)c2O)C2C3CC4CC12CC4(C)O3` (stereo not shown) — result for “viable bacteria in skin”: 8.6e+06 CFU/g (MRSA, BALB/c mice burn wound, skin; topical, 2% ointment twice daily, 7 days).
For `CCOC(=O)CSc1nnc(C23CC4CC(CC(C4)C2)C3)n1-c1ccccc1`, “inhibition zone diameter” read 22 mm (IFO 3060; 200 µg/disc, 24 h, 37 °C).
`CN(C)c1ccc(O)c2c1C[C@H]1C[C@H]3[C@H](N(C)C)C(O)=C(C(N)=O)C(=O)[C@@]3(O)C(O)=C1C2=O` — result for “log10 CFU change”: 0.98 log10 (MRSA 5 tetM, mouse thigh infection model; sc, 20 mg/kg, 24 h; reference: untreated control).
With `CO/N=C(\C(=O)N[C@@H]1C(=O)N2C(C(=O)O)=C(CSc3nc(=O)c(=O)[nH]n3C)CS[C@H]12)c1csc(N)n1` the FIC index was 0.25 (checkerboard broth microdilution; clinical isolate 15-99; with: magainin II).
For `CC12C[C@@]34C=CC(=O)[C@@](C)(CCC(=O)Nc5c(O)ccc(C(=O)O)c5O)C3[C@H](CC1C4)O2` (stereo partly shown), the bacterial load was 2e+06 CFU/g (MRSA, BALB/c mice, burn wound infection, skin; topical, 2% ointment twice daily for 7 days, 168 h).
`Oc1ccc(-c2nc(-c3ccc(Oc4ccc(C(F)(F)F)cc4)cc3)no2)cc1` has an ED50 of 44 mg/kg (survival; ATCC 27660 MRSA, mouse, peritonitis; oral).
The MIC of `CCc1cc(=O)c2c(OCC(O)CN3CCC(C)CC3)c3ccoc3c(OC)c2o1` (stereo not shown) is reported as greater than 256 mg/L (microbial growth, broth dilution; NCTC4163; 19 h).
The MBC of `c1ccc(CN(CCN(Cc2ccccn2)Cc2ccccn2)Cc2ccccn2)nc1` is reported as 375 µM (≈ 159 µg/mL) (microbial killing; MRSA).
`CN(C)c1cc(NC(=O)CNC(C)(C)C)c(O)c2c1C[C@H]1C[C@H]3[C@H](N(C)C)C(O)=C(C(N)=O)C(=O)[C@@]3(O)C(O)=C1C2=O`: “log10 CFU change” 3.74 log10 (MRSA 5 tetM, mouse thigh infection model; sc, 20 mg/kg, 24 h; reference: untreated control).
The MIC of `CCc1cc(=O)c2c(O)c3ccoc3c(OC)c2o1` is reported as 64 mg/L (≈ 246 µM) (microbial growth, broth dilution; ATCC25; 19 h).
For `O=C1c2ccccc2NC(c2cc([N+](=O)[O-])ccc2O)N1/N=C/c1cc([N+](=O)[O-])ccc1O` (stereo not shown), “lowest effective concentration” read 0.12 × MIC (respiratory activity, inhibitor, MTT; ATCC 29213; concentration not given; at least 70% inhibition).
For `CN(C)CCSc1nnc(C23CC4CC(CC(C4)C2)C3)n1C`, “inhibition zone diameter” read 12 mm (IFO 3060; 200 µg/disc, 24 h, 37 °C).
`gentamicin` — result for “inhibition zone diameter”: 22 mm (ATCC 29213; 10 µg/mL, 24 h, 37 °C).
For `CC1(C)S[C@@H]2[C@H](NC(=O)[C@H](N)c3ccccc3)C(=O)N2[C@H]1C(=O)O`, the inhibition zone was 23 mm (microbial growth, disc diffusion; MTCC96; 100 µg/mL, 24 h).
`CCc1cc(=O)c2c(OCC(O)CNC(C)(C)C)c3ccoc3c(OC)c2o1` (stereo not shown) gave an MIC of greater than 256 mg/L (microbial growth, broth dilution; ATCC29; 19 h).
`CN[C@H](CC(C)C)C(=O)N[C@H]1C(=O)N[C@@H](CC(N)=O)C(=O)N[C@H]2C(=O)N[C@H]3C(=O)N[C@H](C(=O)N[C@H](C(=O)O)c4cc(O)cc(O)c4-c4cc3ccc4O)[C@H](O)c3ccc(c(Cl)c3)Oc3cc2cc(c3O[C@@H]2O[C@H](CO)[C@@H](O)[C@H](O)[C@H]2O[C@H]2C[C@](C)(N)[C@H](O)[C@H](C)O2)Oc2ccc(cc2Cl)[C@H]1O` has a bacterial load of 4.8 log CFU/g (ATCC 33591 MRSA, neutropenic mouse thigh infection, thigh tissue; ip, 12 mg/kg twice 12 h apart, 24 h post-infection).
For `C[C@@H](O)[C@H]1C(=O)N2C(C(=O)O)=C(S[C@@H]3CN[C@H](C(=O)N(C)C)C3)[C@H](C)[C@H]12`, the FIC index was 0.75 (checkerboard broth microdilution; ATCC 27853; with: ranalexin).
With `CCc1cc(=O)c2c(OCC(O)CNC(C)C)c3ccoc3c(OC)c2o1` (stereo not shown) the MIC was greater than 256 mg/L (microbial growth, broth dilution; ATCC29; 19 h).
